Assay results collected from several papers.
Numbered parts are unrelated; each lists some results of a single study.
Chain of UniProt Q15835 (whole entry, looked up): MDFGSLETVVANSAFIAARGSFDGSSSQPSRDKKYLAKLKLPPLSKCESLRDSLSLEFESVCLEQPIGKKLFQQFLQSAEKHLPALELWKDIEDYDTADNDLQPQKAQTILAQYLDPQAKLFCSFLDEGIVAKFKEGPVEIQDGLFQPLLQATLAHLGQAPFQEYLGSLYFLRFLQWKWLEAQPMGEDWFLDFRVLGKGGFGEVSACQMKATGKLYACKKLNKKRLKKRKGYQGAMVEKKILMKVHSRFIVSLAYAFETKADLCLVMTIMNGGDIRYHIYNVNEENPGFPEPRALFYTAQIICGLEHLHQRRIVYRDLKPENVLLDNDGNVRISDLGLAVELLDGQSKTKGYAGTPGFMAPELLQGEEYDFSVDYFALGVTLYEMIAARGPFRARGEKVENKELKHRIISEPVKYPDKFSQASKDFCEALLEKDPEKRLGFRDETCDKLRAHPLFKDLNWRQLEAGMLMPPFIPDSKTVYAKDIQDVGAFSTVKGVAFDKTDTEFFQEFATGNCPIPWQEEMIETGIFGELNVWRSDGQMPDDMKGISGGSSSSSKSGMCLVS
Chain of UniProt Q96RR4 (whole entry, looked up): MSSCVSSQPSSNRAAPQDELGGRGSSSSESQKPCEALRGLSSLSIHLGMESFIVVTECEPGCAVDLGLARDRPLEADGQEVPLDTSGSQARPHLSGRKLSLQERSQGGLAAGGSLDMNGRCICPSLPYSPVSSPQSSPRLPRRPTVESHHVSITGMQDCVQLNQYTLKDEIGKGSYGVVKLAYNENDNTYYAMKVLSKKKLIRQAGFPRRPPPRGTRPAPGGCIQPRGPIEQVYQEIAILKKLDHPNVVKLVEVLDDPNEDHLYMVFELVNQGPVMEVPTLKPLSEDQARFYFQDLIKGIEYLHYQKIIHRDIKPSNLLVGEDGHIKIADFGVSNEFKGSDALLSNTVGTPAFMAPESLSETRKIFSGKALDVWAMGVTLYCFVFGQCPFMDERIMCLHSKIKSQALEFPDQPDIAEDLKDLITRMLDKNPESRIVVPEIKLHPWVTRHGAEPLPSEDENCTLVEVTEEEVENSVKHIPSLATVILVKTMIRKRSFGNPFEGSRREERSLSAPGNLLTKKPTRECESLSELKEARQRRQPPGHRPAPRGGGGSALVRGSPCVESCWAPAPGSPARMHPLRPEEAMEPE
Chain of UniProt Q16659 (whole entry, looked up): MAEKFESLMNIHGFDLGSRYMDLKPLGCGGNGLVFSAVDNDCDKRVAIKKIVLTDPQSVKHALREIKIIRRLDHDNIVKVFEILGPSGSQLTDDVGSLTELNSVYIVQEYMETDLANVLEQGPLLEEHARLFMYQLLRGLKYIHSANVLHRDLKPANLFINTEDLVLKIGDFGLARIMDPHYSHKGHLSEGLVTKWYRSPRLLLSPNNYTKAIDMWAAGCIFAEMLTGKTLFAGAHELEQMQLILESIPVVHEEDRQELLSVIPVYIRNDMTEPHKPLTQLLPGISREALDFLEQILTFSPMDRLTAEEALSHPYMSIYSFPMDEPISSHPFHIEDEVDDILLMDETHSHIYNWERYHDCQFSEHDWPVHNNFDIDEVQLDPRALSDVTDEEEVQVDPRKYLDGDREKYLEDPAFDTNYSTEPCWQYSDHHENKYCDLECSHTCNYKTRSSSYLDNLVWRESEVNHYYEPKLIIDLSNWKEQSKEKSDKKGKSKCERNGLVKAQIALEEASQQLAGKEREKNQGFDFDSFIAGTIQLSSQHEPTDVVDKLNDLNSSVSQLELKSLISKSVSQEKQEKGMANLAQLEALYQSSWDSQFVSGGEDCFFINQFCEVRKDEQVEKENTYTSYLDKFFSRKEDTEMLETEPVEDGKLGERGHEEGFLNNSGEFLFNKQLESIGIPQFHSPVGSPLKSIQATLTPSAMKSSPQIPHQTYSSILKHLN
Chain of UniProt P15735 (whole entry, looked up): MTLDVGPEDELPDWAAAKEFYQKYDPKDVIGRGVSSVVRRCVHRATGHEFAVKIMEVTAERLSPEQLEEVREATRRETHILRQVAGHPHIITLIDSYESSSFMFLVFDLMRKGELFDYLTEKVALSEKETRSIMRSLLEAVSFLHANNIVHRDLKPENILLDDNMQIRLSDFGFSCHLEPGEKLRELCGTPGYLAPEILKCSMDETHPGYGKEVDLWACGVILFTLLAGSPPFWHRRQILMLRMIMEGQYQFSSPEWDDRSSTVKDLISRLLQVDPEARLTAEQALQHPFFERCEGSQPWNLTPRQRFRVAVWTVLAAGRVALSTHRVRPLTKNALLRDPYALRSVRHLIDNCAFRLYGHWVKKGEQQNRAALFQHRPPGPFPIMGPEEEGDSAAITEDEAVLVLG
Chain of UniProt Q9Y243 (whole entry, looked up): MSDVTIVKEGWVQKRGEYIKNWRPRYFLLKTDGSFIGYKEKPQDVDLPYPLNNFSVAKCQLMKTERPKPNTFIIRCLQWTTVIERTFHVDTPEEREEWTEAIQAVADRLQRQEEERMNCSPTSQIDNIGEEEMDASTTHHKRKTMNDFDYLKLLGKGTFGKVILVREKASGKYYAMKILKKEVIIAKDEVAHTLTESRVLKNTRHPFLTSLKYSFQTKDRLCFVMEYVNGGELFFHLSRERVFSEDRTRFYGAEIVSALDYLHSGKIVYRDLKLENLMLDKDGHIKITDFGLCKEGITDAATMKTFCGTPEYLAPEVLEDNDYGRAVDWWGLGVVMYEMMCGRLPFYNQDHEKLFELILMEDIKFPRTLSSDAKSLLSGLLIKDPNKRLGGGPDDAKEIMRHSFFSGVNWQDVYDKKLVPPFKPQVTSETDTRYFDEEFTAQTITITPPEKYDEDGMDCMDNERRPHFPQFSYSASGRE
Chain of UniProt P48730 (whole entry, looked up): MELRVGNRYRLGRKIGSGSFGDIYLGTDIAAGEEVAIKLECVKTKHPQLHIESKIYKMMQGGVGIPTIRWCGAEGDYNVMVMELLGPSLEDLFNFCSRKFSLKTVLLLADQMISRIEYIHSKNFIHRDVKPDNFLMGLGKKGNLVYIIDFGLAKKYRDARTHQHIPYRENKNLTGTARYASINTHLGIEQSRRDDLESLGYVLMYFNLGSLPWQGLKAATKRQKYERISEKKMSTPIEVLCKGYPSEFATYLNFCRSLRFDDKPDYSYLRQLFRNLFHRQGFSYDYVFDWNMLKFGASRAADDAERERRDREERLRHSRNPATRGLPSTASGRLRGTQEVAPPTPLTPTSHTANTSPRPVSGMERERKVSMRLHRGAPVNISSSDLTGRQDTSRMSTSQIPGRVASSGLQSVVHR
Chain of UniProt Q9UPZ9 (whole entry, looked up): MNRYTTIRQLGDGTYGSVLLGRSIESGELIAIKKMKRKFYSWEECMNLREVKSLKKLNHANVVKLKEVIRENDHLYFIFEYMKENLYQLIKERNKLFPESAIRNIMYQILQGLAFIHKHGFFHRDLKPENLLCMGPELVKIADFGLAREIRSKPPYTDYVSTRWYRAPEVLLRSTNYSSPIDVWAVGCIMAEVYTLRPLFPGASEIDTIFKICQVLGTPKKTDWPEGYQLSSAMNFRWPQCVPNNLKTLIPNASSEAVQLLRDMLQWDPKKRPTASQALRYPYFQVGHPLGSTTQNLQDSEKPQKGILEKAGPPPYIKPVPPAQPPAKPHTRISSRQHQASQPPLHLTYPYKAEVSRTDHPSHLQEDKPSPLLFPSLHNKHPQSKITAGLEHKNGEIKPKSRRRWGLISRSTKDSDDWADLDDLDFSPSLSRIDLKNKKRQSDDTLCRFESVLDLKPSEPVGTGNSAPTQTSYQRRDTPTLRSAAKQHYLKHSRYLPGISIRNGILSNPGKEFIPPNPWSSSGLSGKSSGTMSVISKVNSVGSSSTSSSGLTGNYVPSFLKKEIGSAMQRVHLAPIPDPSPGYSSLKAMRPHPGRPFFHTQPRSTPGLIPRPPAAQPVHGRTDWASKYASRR
Chain of UniProt Q8IZF7 (whole entry, looked up): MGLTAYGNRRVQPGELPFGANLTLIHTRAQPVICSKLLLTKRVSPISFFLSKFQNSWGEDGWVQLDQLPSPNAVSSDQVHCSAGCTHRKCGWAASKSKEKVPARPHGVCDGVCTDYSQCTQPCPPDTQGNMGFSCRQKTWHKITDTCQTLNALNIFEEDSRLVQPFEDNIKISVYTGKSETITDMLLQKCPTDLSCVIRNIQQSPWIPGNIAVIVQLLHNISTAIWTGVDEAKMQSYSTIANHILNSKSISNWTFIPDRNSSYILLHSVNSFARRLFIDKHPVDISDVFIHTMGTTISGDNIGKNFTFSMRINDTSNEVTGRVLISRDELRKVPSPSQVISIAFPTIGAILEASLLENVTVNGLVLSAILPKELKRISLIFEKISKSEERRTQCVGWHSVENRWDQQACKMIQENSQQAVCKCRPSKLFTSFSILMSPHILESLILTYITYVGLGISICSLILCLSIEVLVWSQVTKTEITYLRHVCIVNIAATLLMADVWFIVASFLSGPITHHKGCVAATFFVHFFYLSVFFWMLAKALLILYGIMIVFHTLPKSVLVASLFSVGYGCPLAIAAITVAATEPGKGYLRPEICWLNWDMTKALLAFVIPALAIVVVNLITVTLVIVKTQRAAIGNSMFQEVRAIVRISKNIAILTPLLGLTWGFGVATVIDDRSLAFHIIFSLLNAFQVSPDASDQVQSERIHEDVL
Chain of UniProt O75388 (whole entry, looked up): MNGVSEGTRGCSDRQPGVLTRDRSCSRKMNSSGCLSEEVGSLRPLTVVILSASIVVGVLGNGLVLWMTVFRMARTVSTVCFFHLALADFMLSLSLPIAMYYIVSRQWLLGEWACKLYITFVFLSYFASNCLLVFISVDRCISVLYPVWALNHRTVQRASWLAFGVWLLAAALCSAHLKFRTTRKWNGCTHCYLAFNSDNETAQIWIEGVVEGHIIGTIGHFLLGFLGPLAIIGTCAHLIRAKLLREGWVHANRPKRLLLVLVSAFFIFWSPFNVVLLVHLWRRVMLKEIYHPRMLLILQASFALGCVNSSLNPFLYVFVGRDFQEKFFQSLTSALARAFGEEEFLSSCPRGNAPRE

Study 1
Structure (SMILES): CC(C)n1cnc(-c2ccc(F)cc2)c1-c1ncc(C(=O)Nc2ccc(N3CCN(C)CC3)cc2)[nH]1
Technique: phase 2a trial
Species: idiopathic pulmonary fibrosis patients
30 mg once daily, grade 2 emergent event — “patients with hypothyroidism”: 0%.
60 mg once daily, grade 3 emergent event — “patients with hypothyroidism”: 0%.
For 30 mg once daily, grade 1 emergent event: “patients with hypothyroidism” read 0%.
60 mg once daily, grade 2 emergent event — “patients with hypothyroidism”: 0%.
For 60 mg once daily, grade 1 emergent event: “patients with hypothyroidism” read 0%.
30 mg once daily, grade 4 emergent event — “patients with hypothyroidism”: 0%.
It gave 0% for “patients with hypothyroidism” (all arms pooled, grade 4 emergent event).

Study 2
Organism: Sarcocystis neurona
Effect on: parasite growth
Tested at: 10 µM
Time: 96 h
Reference: untreated
For CS(=O)(=O)c1ccc(-c2cc(Br)sc2-c2ccc(F)cc2)cc1, “log2 fold change” read -0.25.
Cc1[nH]c(=O)c(C#N)cc1-c1ccncc1: “log2 fold change” 0.37.
CC(COc1ccccc1)N(CCCl)Cc1ccccc1 (centres unmarked): “log2 fold change” 0.34.
CN1CCN(CCCN2c3ccccc3Sc3ccc(Cl)cc32)CC1: “log2 fold change” -0.23.
Nc1ccn([C@H]2CC[C@@H](CO)O2)c(=O)n1: “log2 fold change” 0.28.

Study 3
Compound: NC(N)=NC(=O)c1nc(Cl)c(N2CCCCCC2)nc1N
Effect on: β-arrestin recruitment
Mode: agonist
Technique: PRESTO-Tango
Tested at: 10 µM
Reference: untreated
Putative adhesion G protein-coupled receptor F2P (ADGRF2P, Homo sapiens, UniProt Q8IZF7) — “fold over basal”: 0.69.
For Retinoic acid-induced protein 3 (GPRC5A, Homo sapiens, UniProt Q8NFJ5): “fold over basal” read 0.76.
The “fold over basal” was 1.48 (GPR32 (Homo sapiens, UniProt O75388)).
The “fold over basal” was 0.99 (ADGRG2 (Homo sapiens, UniProt Q8IZP9)).
For GRM5 (Homo sapiens, UniProt P41594): “fold over basal” read 0.63 fold.
The “fold over basal” was 1.21 (Probable G-protein coupled receptor 141 (GPR141, Homo sapiens, UniProt Q7Z602)).
The “fold over basal” was 0.76 fold (TSHR (Homo sapiens, UniProt P16473)).

Study 4
Compound: CCOC(=O)c1cc2cc(-c3cc(C(=O)NCc4ccc(C(=O)O)cc4)nn3C)ccc2[nH]1
Effect on: cell-free assay
Technique: competition with immobilised ligand
Tested at: 0.1 µM
For PRKCI (Homo sapiens, UniProt P41743): remaining binding read 87%.
The remaining binding was 81% (CSNK1D (Homo sapiens, UniProt P48730)).
The remaining binding was 97% (MAPK6 (Homo sapiens, UniProt Q16659)).
For DYRK1B (Homo sapiens, UniProt Q9Y463): remaining binding read 100%.
The remaining binding was 100% (PHKG2 (Homo sapiens, UniProt P15735)).
For CILK1 (Homo sapiens, UniProt Q9UPZ9): remaining binding read 85%.
It gave 86% for remaining binding (AKT3 (Homo sapiens, UniProt Q9Y243)).
For GRK1 (Homo sapiens, UniProt Q15835): remaining binding read 95%.
The remaining binding was 71% (CASK (Homo sapiens, UniProt O14936)).
Ribosomal protein S6 kinase alpha-5, C-terminal kinase domain (RPS6KA5, Homo sapiens, UniProt O75582) — remaining binding: 100%.
It gave 96% for remaining binding (EPHA4 (Homo sapiens, UniProt P54764)).
For PNCK (Homo sapiens, UniProt Q6P2M8): remaining binding read 97%.
The remaining binding was 76% (DDR2 (Homo sapiens, UniProt Q16832)).
It gave 97% for remaining binding (MAP2K7 (Homo sapiens, UniProt O14733)).
The remaining binding was 100% (STK17B (Homo sapiens, UniProt O94768)).
It gave 72% for remaining binding (MAPKAPK2 (Homo sapiens, UniProt P49137)).
The remaining binding was 90% (FLT3 (Homo sapiens, UniProt P36888, D835V)).
It gave 95% for remaining binding (CAMKK2 (Homo sapiens, UniProt Q96RR4)).
It gave 83% for remaining binding (Tyrosine-protein kinase ABL1, non-phosphorylated (ABL1, Homo sapiens, UniProt P00519, T315I)).

Excerpt of the above (study 1):
60 mg once daily, grade 2 emergent event — “patients with hypothyroidism”: 0%.
For 60 mg once daily, grade 1 emergent event: “patients with hypothyroidism” read 0%.
30 mg once daily, grade 4 emergent event — “patients with hypothyroidism”: 0%.
It gave 0% for “patients with hypothyroidism” (all arms pooled, grade 4 emergent event).
